Published values gathered from unrelated publications.
Every numbered part comes from another study and shows a few of its results, in no order. Substitutions count along the parent as printed.
UniProt Q9UM73, sequence (whole entry, unmodified, looked up): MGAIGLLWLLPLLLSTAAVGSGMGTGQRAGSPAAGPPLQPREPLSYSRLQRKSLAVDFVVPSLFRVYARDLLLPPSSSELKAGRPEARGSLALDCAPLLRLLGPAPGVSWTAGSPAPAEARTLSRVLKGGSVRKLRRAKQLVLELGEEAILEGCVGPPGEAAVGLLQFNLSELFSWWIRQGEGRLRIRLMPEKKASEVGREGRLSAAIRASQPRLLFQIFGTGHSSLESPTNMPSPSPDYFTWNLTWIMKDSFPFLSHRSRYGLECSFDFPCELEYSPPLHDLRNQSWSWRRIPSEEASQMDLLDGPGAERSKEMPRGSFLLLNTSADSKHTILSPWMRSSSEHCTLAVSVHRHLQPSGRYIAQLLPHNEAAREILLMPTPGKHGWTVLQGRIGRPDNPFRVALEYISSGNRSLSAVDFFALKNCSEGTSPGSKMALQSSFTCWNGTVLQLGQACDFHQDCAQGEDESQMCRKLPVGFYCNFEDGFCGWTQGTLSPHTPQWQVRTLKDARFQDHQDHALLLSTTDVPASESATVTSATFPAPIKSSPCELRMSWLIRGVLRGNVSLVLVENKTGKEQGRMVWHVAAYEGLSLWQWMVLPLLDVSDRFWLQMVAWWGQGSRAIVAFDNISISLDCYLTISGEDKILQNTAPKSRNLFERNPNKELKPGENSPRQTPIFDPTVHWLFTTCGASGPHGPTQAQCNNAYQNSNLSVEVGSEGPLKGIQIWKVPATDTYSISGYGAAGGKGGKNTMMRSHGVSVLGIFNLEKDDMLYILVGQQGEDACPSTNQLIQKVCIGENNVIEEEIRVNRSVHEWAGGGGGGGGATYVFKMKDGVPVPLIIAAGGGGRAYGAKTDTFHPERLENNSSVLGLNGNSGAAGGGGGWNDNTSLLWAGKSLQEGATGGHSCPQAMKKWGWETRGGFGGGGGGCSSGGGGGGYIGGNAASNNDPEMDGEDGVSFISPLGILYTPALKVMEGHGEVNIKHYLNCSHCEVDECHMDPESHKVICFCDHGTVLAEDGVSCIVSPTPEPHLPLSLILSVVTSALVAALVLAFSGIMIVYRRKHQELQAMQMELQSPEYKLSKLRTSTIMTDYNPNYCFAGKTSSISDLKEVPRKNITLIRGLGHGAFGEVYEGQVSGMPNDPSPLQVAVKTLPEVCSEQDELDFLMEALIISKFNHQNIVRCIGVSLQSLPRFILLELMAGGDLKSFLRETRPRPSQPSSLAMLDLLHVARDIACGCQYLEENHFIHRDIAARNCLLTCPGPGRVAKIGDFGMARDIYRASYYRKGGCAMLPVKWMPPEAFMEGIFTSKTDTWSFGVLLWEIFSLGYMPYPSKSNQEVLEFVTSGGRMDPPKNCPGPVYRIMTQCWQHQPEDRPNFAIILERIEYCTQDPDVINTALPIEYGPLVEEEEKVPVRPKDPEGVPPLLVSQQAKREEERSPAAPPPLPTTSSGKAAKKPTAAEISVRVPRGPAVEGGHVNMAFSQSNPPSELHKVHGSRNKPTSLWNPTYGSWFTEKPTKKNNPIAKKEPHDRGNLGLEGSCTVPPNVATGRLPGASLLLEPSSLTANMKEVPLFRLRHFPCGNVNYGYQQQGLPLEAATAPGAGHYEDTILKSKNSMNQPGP
UniProt Q96GD4, sequence (whole entry, looked up): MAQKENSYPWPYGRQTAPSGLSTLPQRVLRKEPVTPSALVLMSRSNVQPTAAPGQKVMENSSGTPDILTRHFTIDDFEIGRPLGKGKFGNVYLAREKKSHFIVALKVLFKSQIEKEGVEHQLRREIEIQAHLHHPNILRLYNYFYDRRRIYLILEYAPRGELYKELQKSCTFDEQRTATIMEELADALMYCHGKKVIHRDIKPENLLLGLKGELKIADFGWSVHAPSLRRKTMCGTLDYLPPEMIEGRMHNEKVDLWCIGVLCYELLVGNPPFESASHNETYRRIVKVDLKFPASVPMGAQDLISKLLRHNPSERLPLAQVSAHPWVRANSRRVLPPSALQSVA
UniProt P27037, sequence (whole entry, looked up): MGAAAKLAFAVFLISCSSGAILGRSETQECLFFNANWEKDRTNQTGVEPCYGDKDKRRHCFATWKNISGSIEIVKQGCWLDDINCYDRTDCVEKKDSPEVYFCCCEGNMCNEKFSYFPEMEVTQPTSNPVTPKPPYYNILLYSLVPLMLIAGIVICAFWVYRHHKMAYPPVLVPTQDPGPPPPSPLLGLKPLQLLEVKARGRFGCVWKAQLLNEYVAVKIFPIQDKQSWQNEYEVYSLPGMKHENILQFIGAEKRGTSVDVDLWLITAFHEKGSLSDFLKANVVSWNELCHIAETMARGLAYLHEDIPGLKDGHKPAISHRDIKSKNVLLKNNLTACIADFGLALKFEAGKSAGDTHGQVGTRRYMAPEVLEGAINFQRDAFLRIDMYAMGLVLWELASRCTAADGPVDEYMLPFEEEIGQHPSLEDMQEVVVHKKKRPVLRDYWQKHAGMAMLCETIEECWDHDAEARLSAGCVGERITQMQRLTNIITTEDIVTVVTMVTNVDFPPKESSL
UniProt O14976, sequence (whole entry, looked up): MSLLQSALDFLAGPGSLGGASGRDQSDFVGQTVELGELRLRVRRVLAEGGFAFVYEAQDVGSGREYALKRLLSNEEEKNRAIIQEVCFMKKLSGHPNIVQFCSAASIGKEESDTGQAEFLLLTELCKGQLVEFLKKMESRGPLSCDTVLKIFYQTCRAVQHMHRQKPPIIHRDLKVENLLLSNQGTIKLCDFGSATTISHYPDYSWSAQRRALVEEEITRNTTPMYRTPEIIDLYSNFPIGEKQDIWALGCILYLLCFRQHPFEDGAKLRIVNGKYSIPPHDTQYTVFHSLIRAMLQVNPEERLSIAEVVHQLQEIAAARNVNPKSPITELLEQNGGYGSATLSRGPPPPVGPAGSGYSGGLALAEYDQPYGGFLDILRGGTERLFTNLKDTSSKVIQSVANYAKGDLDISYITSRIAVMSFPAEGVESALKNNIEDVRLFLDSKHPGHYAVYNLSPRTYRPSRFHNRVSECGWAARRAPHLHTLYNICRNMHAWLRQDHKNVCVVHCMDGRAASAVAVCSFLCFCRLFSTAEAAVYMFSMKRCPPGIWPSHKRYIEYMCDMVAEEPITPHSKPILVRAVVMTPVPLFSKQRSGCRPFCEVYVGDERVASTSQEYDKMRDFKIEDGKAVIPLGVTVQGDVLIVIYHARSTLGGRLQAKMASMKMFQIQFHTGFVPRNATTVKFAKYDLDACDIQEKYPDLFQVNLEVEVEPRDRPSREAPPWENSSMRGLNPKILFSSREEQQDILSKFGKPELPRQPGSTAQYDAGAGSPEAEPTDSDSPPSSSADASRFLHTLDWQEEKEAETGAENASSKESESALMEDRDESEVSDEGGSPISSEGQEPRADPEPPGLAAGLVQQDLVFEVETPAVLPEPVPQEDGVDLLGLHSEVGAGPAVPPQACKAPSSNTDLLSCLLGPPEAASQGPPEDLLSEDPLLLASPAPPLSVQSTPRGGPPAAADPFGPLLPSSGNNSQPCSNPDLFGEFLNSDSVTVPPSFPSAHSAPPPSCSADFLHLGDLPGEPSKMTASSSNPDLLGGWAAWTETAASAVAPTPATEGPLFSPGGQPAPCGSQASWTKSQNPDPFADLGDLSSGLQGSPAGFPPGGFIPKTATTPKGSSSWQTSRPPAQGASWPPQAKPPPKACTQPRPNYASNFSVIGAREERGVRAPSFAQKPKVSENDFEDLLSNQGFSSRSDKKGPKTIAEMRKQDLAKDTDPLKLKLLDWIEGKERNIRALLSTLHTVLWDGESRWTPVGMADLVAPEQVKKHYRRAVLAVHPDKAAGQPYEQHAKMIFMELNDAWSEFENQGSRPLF
UniProt P07333, sequence (whole entry, looked up): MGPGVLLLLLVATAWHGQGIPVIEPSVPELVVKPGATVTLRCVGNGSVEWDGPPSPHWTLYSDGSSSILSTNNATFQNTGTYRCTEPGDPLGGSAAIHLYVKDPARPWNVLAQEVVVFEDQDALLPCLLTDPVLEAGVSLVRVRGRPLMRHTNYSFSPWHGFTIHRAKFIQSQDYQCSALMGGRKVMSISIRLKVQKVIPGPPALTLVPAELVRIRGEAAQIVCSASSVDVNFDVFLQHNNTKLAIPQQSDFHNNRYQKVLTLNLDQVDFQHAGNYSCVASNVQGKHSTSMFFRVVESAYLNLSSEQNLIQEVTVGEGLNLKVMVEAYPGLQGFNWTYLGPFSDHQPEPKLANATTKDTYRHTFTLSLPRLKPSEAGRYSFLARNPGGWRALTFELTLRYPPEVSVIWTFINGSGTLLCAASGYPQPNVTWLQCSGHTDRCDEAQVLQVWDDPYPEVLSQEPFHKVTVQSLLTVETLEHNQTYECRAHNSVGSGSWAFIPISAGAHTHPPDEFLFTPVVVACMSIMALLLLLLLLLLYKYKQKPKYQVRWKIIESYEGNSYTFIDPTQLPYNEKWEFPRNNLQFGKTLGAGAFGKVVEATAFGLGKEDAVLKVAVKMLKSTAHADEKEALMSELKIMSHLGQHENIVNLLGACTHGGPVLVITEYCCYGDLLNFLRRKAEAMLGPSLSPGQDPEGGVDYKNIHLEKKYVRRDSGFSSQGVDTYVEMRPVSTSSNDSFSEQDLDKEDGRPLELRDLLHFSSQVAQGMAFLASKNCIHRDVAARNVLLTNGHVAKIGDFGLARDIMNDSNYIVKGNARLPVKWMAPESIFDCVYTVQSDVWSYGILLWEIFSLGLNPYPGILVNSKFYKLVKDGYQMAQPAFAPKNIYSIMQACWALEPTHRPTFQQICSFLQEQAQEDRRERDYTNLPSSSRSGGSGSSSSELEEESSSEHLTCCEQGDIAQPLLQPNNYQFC
UniProt P52564, sequence (whole entry, looked up): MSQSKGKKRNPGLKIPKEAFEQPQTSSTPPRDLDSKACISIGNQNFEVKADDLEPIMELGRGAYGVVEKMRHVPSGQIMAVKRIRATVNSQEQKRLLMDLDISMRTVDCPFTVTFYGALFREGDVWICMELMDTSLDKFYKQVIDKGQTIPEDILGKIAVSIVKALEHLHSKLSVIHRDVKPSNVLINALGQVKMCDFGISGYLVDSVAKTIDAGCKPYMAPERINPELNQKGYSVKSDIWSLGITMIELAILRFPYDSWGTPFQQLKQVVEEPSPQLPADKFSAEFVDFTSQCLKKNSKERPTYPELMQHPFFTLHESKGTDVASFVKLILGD

Study 1 — observed: enzyme activity; action: inhibitor; concentration: 0.5 µM; reference: control
Target: Proto-oncogene tyrosine-protein kinase Src (SRC, Homo sapiens, UniProt P12931)
Structure (SMILES)	remaining activity [%]
O=C(O)c1ccc2c3c1cccc3c(=O)n1c3ccccc3nc21	96.3
O=C1NC(=O)C(c2cn(CCCn3ccnc3)c3ccccc23)=C1Nc1ccccc1	100
O=C1NC(=O)C(c2cn(CCCO)c3ncccc23)=C1c1cnccn1	78.9
CC(C)[C@H](CO)Nc1nc(Nc2cc(N)cc(Cl)c2)c2ncn(C(C)C)c2n1	3.75
N#CC(C#N)=C(N)/C(C#N)=C/c1ccc(O)cc1	92.3
Cn1c2ccccc2c2c3c(c4c5ccccc5n(CCC#N)c4c21)CNC3=O	74.8
O=S(=O)(c1cccc2cnccc12)N1CCCNCC1	85.3
COc1ccc(C(=O)Nc2sc3c(c2C(N)=O)CCCC3)cc1OC	100
COc1ccc(CNC(=O)Nc2ncc([N+](=O)[O-])s2)cc1	101
OCC(O)CCON=C1C(c2c(O)[nH]c3ccccc23)=Nc2ccccc21 (stereo not drawn)	22.6
O=c1c2ccccc2[nH]c(=S)n1CCN1CCC(=C(c2ccc(F)cc2)c2ccc(F)cc2)CC1	103
C#Cc1cccc(Nc2ncnc3cc(OCCOC)c(OCCOC)cc23)c1	77.4
CO[C@H]1C[C@@H]2CC[C@@H](C)[C@@](O)(O2)C(=O)C(=O)N2CCCC[C@H]2C(=O)O[C@H]([C@H](C)C[C@@H]2CC[C@@H](O)[C@H](OC)C2)CC(=O)[C@H](C)/C=C(\C)[C@@H](O)[C@@H](OC)C(=O)[C@H](C)C[C@H](C)/C=C/C=C/C=C/1C	96
COc1cc2nccc(Oc3ccc(NC(=S)NC(=O)c4ccccc4C)cc3)c2cc1OC	71.7

Study 2 — observed: cell-free assay; technique: competition with immobilised ligand; concentration: 1 µM
Compound: CS(=O)(=O)NCC[C@H](NC(=O)c1cncc2c1cnn2-c1ccc(F)cc1)c1ccnc(S(C)(=O)=O)c1
target	remaining binding
ACVR2A (Homo sapiens, UniProt P27037)	81%
Aurora kinase B (AURKB, Homo sapiens, UniProt Q96GD4)	100%
GAK (Homo sapiens, UniProt O14976)	100%
INSRR (Homo sapiens, UniProt P14616)	100%
NEK4 (Homo sapiens, UniProt P51957)	100%
DSTYK (Homo sapiens, UniProt Q6XUX3)	98%
MAP2K6 (Homo sapiens, UniProt P52564)	82%
ERBB4 (Homo sapiens, UniProt Q15303)	95%
EIF2AK2 (Homo sapiens, UniProt P19525)	53%
RET (Homo sapiens, UniProt P07949, M918T)	100%
Macrophage colony-stimulating factor 1 receptor, autoinhibited (CSF1R, Homo sapiens, UniProt P07333)	100%
CSNK1E (Homo sapiens, UniProt P49674)	100%
EGFR (Homo sapiens, UniProt P00533, L858R/T790M)	78%
ALK (Homo sapiens, UniProt Q9UM73, C1156Y)	100%

Study 3 — technique: universal PBM; molecule type: double-stranded DNA, one strand shown; medium: in vitro; concentration: not given; direction: higher = stronger binding
Target: Sal-like protein 4, full length isoform B (SALL4, Homo sapiens, UniProt Q9UJQ4-2, residues 1-616)
Notes: 8-mer, flanks averaged, mean of replicates
Target sequence (chain): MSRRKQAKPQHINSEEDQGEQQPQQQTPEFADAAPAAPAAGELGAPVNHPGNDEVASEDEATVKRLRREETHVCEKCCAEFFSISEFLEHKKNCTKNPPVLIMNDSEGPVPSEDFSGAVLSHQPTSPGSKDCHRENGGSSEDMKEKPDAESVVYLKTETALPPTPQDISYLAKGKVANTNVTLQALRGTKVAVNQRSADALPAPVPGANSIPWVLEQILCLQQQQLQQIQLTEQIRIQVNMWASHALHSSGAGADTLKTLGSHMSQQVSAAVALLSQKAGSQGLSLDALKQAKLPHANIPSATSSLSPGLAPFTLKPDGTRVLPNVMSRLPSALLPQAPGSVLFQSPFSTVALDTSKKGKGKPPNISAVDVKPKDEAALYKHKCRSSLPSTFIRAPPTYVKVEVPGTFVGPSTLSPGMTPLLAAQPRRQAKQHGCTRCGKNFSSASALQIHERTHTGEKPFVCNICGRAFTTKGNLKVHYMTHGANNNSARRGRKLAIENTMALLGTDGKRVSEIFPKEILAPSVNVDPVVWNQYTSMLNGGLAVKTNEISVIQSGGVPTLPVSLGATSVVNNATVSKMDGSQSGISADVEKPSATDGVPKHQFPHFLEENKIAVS
Strand	E-score
AGGCAGTC	-0.119
ACCCACCT	-0.244
GGGACGAA	-0.153
AAAGCTTA	0.147
CCAGTGCC	-0.309
ATGAGTGC	0.177
AAGCGAGC	-0.158
CCAATGAG	-0.154

Study 4 — Change: A13G; technique: DHFR PCA, deep sequencing; medium: yeast; reference: wild-type fitted maximum; direction: higher = stronger binding
Target: ABI1, truncated, D143A, DHFR fusion (Arabidopsis thaliana)
Notes: methotrexate growth selection, single substitutions
Starting sequence: PYL1, truncated, DHFR fusion (Arabidopsis thaliana); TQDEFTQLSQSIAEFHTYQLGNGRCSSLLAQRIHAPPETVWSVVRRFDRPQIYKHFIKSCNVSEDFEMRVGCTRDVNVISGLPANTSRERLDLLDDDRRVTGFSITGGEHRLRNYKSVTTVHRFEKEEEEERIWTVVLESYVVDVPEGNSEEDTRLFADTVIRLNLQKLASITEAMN; partner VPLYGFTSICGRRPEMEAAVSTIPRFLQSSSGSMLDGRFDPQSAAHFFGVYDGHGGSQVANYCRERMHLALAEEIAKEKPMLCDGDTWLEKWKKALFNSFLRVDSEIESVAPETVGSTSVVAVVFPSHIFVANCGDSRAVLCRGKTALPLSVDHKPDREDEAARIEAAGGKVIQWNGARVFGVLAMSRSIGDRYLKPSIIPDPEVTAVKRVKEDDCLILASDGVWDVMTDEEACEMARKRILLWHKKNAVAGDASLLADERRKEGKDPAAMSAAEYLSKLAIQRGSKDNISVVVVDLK
conditions	relative binding score [%]
with: (+)-ABA 2500 µM	104
with: (+)-ABA 200 µM	94.2
with: (+)-ABA 17 µM	74.9
with: (+)-ABA 4.8 µM	62
with: (+)-ABA 710 µM	103
with: (+)-ABA 1.4 µM	33.3

Repeated from above (study 2):
target	remaining binding
GAK (Homo sapiens, UniProt O14976)	100%
Macrophage colony-stimulating factor 1 receptor, autoinhibited (CSF1R, Homo sapiens, UniProt P07333)	100%
ALK (Homo sapiens, UniProt Q9UM73, C1156Y)	100%
MAP2K6 (Homo sapiens, UniProt P52564)	82%
ERBB4 (Homo sapiens, UniProt Q15303)	95%
Aurora kinase B (AURKB, Homo sapiens, UniProt Q96GD4)	100%
